Measured values of several laboratories.
Lines come from different studies, so protocols differ. Numbers after ± are the reported error.

`COc1cccc(OC)c1-c1cc(C(=O)NC2(C(=O)O)C3CC4CC(C3)CC2C4)nn1-c1ccc(C(=O)N(C)CCCN(C)CCCN(C)C(=O)[C@H](CCCCNC(=O)[C@H](CC(C)C)NC(=O)C2OC2C(=O)O)NC(=O)CN2CCN(CC(=O)[O-])CCN(CC(=O)[O-])CCN(CC(=O)[O-])CC2)cc1C(C)C.[177Lu+3]` (mixture of isomers) has a tumour-to-stomach ratio of 90.5 (mouse HT-29 xenograft; 72 h, biodistribution; reference: tumour over stomach).
`CN1C(=O)[C@@H](Cc2ccc(O)c(I)c2)NC(=O)CNC(=O)[C@H](Cc2ccc3ccccc3c2)NC(=O)[C@H](CCCNC(=N)N)NC(=O)[C@H]1CCCNC(=O)c1ccc(CNC(=O)CN2CCN(CC(=O)O)CCN(CC(=O)O)CCN(CC(=O)O)CC2)cc1` [lutetium-177 labelled]: “total absorbed dose” 0.0012 mGy/MBq (2; human, extrapolated from mouse, breasts).
`O=C1c2sc(-c3ccc(N4CCC(CO)CC4)nc3F)nc2CCN1c1cccnc1` gave a parent fraction of 0.84 (HPLC; rhesus monkey, plasma; intravenous, 6 min).
The tissue uptake of `CCCC[C@H](NC(=O)CNC(=O)CNC(=O)[C@H](CCCCNC(=O)[C@H](CC(=O)O)NC(=O)C(C)c1ccc(CC(C)C)cc1)NC(=O)CN1CCN(CC(=O)O)CCN(CC(=O)O)CCN(CC(=O)O)CC1)C(=O)N[C@H]1CC(=O)NCCCC[C@@H](C(N)=O)NC(=O)[C@H](Cc2c[nH]c3ccccc23)NC(=O)[C@H](CCCNC(=N)N)NC(=O)[C@@H](Cc2ccccc2)NC(=O)[C@H](Cc2c[nH]cn2)NC1=O` (some centres unmarked) [lutetium-177 labelled] is reported as 24.1 ± 3.35 %ID/g (C57 mice, tumour-bearing, tumor; 2 h).
For `C=C(NC(=O)c1csc(-c2nc3c(cc2O)-c2nc(cs2)C(=O)NC(C(C)O)C(=O)NC(=C(C)OC)c2nc(cs2)C(=O)NC2c4nc(cs4)C(=O)NC(COC(=O)c4c5c6c(cccc6n4O)COC(=O)C(OC4CC(C)(O)C(N(C)C)C(C)O4)C2OC5)c2nc-3cs2)n1)C(N)=O` (centres unmarked), “volume of distribution” read 0.895 L/kg (cynomolgus monkey, female, plasma; intravenous infusion, 3 mg/kg single dose).
`O=C([O-])CN1CCN(CC(=O)[O-])CCN(C(CO)C(O)CO)CCN(CC(=O)[O-])CC1.[Dy+3]` (centres unmarked) gave a lanthanide concentration of 0.16 ± 0.09 nmol/g (cynomolgus monkey, kidney cortex; dose not given, day 58).
`O=C([O-])CN1CCN(CC(=O)[O-])CCN(CC(CCCc2ccccc2[N+](=O)[O-])N(CC(=O)[O-])CC(=O)[O-])CC1.[177Lu+3]` (centres unmarked) — result for “intact radiolabelled complex”: 99.9 ± 0.1% (TLC; human serum; 134 h, pH 7, 37 °C).
For `N#C[C@@H]1CC(F)(F)CN1C(=O)CNC(=O)c1ccnc2c(NC(=O)CCOCCOCCOCCOCCOCCOCCNC(=O)C(CCCCNC(=O)CN3CCN(CC(=O)[O-])CCN(CC(=O)[O-])CCN(CC(=O)[O-])CC3)NC(=O)CCCc3ccc(I)cc3)cccc12.[68Ga+3]` (some centres unmarked), the radiochemical stability was 98.56 ± 0.6% (human serum; 60 min, 37 °C, 68Ga-labelled).
For `CC1(C)C(=CC=C2CCCC(C=CC3=[N+](CCC[N+](C)(C)C)c4ccc(S(=O)(=O)O)cc4C3(C)C)=C2SCCOCCOCCC(=O)O)N(CCC[N+](C)(C)C)c2ccc(S(=O)(=O)O)cc21`, the Stokes shift was 28 nm (PBS; pH 7.4).
`C/C(N)=N/C(=N\S(=O)(=O)c1ccc(C(F)(F)F)cc1)N1C[C@H](c2ccccc2)C(c2ccc(Cl)cc2)=N1` has a Tmax of 2 h (Beagle dog, plasma; oral, 36 mg/kg).
With `CC(=O)N([O-])CCCCCNC(=O)CCC(=O)N([O-])CCCCCNC(=O)CCC(=O)N([O-])CCCCCN.[89Zr+4]` the intact compound was 97.6 ± 1% (PBS; 7 days, pH 7, 37 °C).
For `CN(Cc1cc(C2CC2)on1)C(=O)c1cccc(-c2ccc(F)cc2)c1`, the remaining compound was 39.6% (male ICR/CD-1 mouse, liver microsomes; 2 µM, 15 min, pH 7.5, without ABT).
`CCCCN1C(=O)c2cccc3c(NCCCCCCCCCCN4CCOCC4)ccc(c23)C1=O` — result for “fluorescence quantum yield”: 1.03 (DMSO).
`CC(=O)N[C@@H](CCCCN)C(=O)N1CCC[C@H]1C(=O)N[C@H](C(=O)N[C@@H](Cc1ccccc1)C(=O)N[C@@H](CCC(N)=O)C(=O)N[C@@H](Cc1ccccc1)C(=O)N[C@@H](CC(C)C)C(=O)N[C@@H](Cc1ccccc1)C(=O)N[C@@H](Cc1c[nH]cn1)C(=O)N[C@@H](CCC(=O)O)C(N)=O)C(C)C` has a nanofiber diameter of 8.9 ± 0.8 nm (AFM; hydrogel; pH 7.4).
For `COc1ccc2c(c1)CCn1c[n+]3c(c1-2)-c1ccc(OC)cc1CC3`, the Monocytes was 14.3 ± 3.23% (female NSG mice, blood; 6 mg/kg, day 14, 5 days per week).
The SUV of `O=C(Nc1cnccc1-c1ccc([18F])cc1)c1ccnc(NC(=O)C2CC2)c1` is reported as 2.11 (ex vivo gamma counting; GSK-3β transgenic mice, late-stage, large intestine; intravenous, 120 min, mean, P-gp inhibitor pretreatment, added: tariquidar 15 mg/kg iv).
`C[Si]1(C)O[Si](C)(C)O[Si](C)(C)O[Si](C)(C)O[Si](C)(C)O[Si](C)(C)O1` — result for “octanol-water partition coefficient”: 7.41e+08 (octanol/water).
For `CCCCN1C(=O)c2cccc3c(NCCCCCCCCN4CCOCC4)ccc(c23)C1=O`, the Stokes shift was 89 nm (dichloromethane).
With `N#C[C@@H]1CC(F)(F)CN1C(=O)CNC(=O)c1ccnc2c(NC(=O)[C@@H](N)CCCCNC(=O)CCOCCOCCOCCOCCOCCOCCNC(=O)CN3CCN(CC(=O)[O-])CCN(CC(=O)[O-])CCN(CC(=O)[O-])CC3)cccc12.[177Lu+3]` the radiochemical stability was 99.08 ± 0.8% (PBS; 4 h, 37 °C, 177Lu-labelled).
`CCCCN1C(=O)c2cccc3c(NCCCCN4CCOCC4)ccc(c23)C1=O` gave a Stokes shift of 79 nm (dioxane).
`COCC1CN(C2CCN(c3cc(OC)c(Nc4ncc(Br)c(Nc5ccc6c(c5P(C)(C)=O)OCCO6)n4)cc3C)CC2)C1` gave an adverse events of 100% (first-in-human trial; human; oral, 10 mg once daily; any treatment-related).
With `CC(C)Cc1ccc(C(C)C(=O)NC(CCCCNC(=O)CCOCCOCCOCCOCCOCCOCCNC(=O)CN2CCN(CC(=O)[O-])CCN(CC(=O)[O-])CCN(CC(=O)[O-])CC2)C(=O)Nc2cccc3c(C(=O)NCC(=O)N4CC(F)(F)C[C@H]4C#N)ccnc23)cc1.[68Ga+3]` (some centres unmarked) the radiochemical stability was 99.9 ± 0.6% (PBS; 30 min, 37 °C, 68Ga-labelled).
With `C=CS(=O)(=O)c1ccc(OC)c(-c2c[nH]c3ncc(-c4cncc(C(=O)N(C)C)c4)cc23)c1` the reactivity half-life was 8 to 10 h (HPLC; acetonitrile/water/DMSO; 50 µM, 37 °C, DIPEA 20 eq, added: N-α-acetyl-lysine).
`Nc1ncnc2[nH]c(/C=C/c3ccc(F)cc3)nc12` gave a purity of 100% (HPLC; solution, dark; before light exposure).
`[123I]c1ccc2nc(-c3ccc(-n4ccnn4)nc3)cn2c1` gave a tracer uptake of 0.055 %ID/g (male Wistar rat, spleen; intravenous, 4 MBq, 3 h).
`CCCCN1C(=O)c2cccc3c(NCCN4CCOCC4)ccc(c23)C1=O` — result for “fluorescence quantum yield”: 0.2 (chloroform).
`O=S(=O)(N[C@H]1CCO[C@@H](C2c3ccc(F)cc3CCc3cc(F)ccc32)C1)c1ccc(OC(F)(F)F)cc1` has a brain concentration of 960 ng/g (mouse, brain homogenate; oral, 30 mg/kg, 2 h).
`CCCCN1C(=O)c2cccc3c(NCCCCCN4CCOCC4)ccc(c23)C1=O` gave a Stokes shift of 88 nm (DMSO).
For `Cc1nc(N)nc2c1C(=O)N[C@@H](c1ccc(F)cc1-c1cccc(O[11CH3])n1)C2`, the tracer uptake was 1.6 ± 0.2 %ID (ex vivo biodistribution; mice, MDA-MB-231 subcutaneous xenograft, stomach; 60 min post-injection, baseline, vehicle pre-treatment).
For `CN1CCC[C@]1(C)/C=C/S(=O)(=O)NC(=O)Nc1c2c(cc3c1CCC3)CCC2`, “subjects with adverse event” read 0% (item: general and administration site disorders; human; oral, 12.5 mg twice daily, 14 days, multiple ascending dose).
`O=C(Nc1cnccc1-c1ccc([18F])nc1)c1ccnc(NC(=O)C2CC2)c1` gave an SUV of 0.071 (FVB/NJ mouse, both sexes, brain; intravenous, 30 min).
The compound remaining of `COC(=O)[C@@]1(C(C)C)C=C(C(=O)Nc2cccc(C(=O)Nc3ccc(Nc4nccc(-c5cccnc5)n4)c(C)c3)c2)C(=O)CC1` is reported as 74.1% (rat, blood plasma; 1 µM, 120 min).
`C[C@@H](Nc1nc2c(cnn2C(C)(C)C)c(=O)n1Cc1cccc(F)c1)c1ccc(Cl)cc1` gave a Vss of 18.9 ± 2.93 L/kg (C57BL/6J mouse; intravenous, 2.5 mg/kg).
With `CCc1cnc(NC(=O)c2cc(S(=O)(=O)N3CCOCC3)ccc2N(C)C2CCCC2)s1` the serum albumin was 3.1 g/dL (mouse; 10 mg/kg, 3 doses).
`C=CC(=O)Nc1cc(Nc2nccc(-c3cn(C)c4ccccc34)n2)c(OC)cc1N(C)CCNC` gave a recovery of 71.3% (storage stability; human plasma; 72 h, on ice, low QC level).

A few entries again:
`Nc1ncnc2[nH]c(/C=C/c3ccc(F)cc3)nc12` gave a purity of 100% (HPLC; solution, dark; before light exposure).
`CCCCN1C(=O)c2cccc3c(NCCCCN4CCOCC4)ccc(c23)C1=O` gave a Stokes shift of 79 nm (dioxane).
`O=C([O-])CN1CCN(CC(=O)[O-])CCN(CC(CCCc2ccccc2[N+](=O)[O-])N(CC(=O)[O-])CC(=O)[O-])CC1.[177Lu+3]` (centres unmarked) — result for “intact radiolabelled complex”: 99.9 ± 0.1% (TLC; human serum; 134 h, pH 7, 37 °C).
For `N#C[C@@H]1CC(F)(F)CN1C(=O)CNC(=O)c1ccnc2c(NC(=O)CCOCCOCCOCCOCCOCCOCCNC(=O)C(CCCCNC(=O)CN3CCN(CC(=O)[O-])CCN(CC(=O)[O-])CCN(CC(=O)[O-])CC3)NC(=O)CCCc3ccc(I)cc3)cccc12.[68Ga+3]` (some centres unmarked), the radiochemical stability was 98.56 ± 0.6% (human serum; 60 min, 37 °C, 68Ga-labelled).
`[123I]c1ccc2nc(-c3ccc(-n4ccnn4)nc3)cn2c1` gave a tracer uptake of 0.055 %ID/g (male Wistar rat, spleen; intravenous, 4 MBq, 3 h).
